{"data": "Results of several laboratories", "BCHE": "Cholinesterase (BCHE, Homo sapiens, UniProt P06276)", "MAOB": "Amine oxidase [flavin-containing] B (MAOB, Homo sapiens, UniProt P27338)", "note": "Lines come from different studies, so protocols differ. ± marks the error that the study gave."}
{"SMILES": "Cc1ccc(S(=O)(=O)Nc2ccccc2N2CCCCC2)s1", "target": "BCHE", "test": "enzyme activity, inhibitor", "quantity": "IC50", "result": "17900 ± 2290 nM"}
{"SMILES": "CC[C@@H](C)[C@@H](NC(=O)C(O)Cc1ccc(O)c(Cl)c1)C(=O)N1C(C(=O)NCCCCN=C(N)N)CC2CCC(OS(=O)(=O)O)CC21 (stereo partly drawn)", "target": "Prothrombin (F2, Bos taurus, UniProt P00735)", "test": "enzyme activity, inhibitor", "quantity": "IC50", "result": "2.5 µg/mL"}
{"SMILES": "c1ccc(N2CCN(c3nc4cc5c(cc4s3)OCCO5)CC2)cc1", "target": "MAOB", "test": "enzyme activity, inhibitor, fluorescence", "conditions": "recombinant human enzyme, together with: kynuramine 20 µM", "quantity": "IC50", "result": "550 nM"}
{"SMILES": "CC(C)Cc1nnc2c(C(=O)NC3c4ccccc4-c4ccccc43)cccn12", "target": "rpoZ/rpoC/rpoB (Escherichia coli, UniProt P0A800+P0A8T7+P0A8V2, D516V)", "test": "enzyme activity, inhibitor", "conditions": "rifampicin-resistant RNA polymerase", "quantity": "IC50", "result": "4000 nM"}
{"SMILES": "O=C(Nc1nc(-c2ccc3ccccc3c2)cs1)c1cccs1", "target": "MAOA (Homo sapiens, UniProt P21397)", "test": "enzyme activity, inhibitor, fluorescence", "conditions": "recombinant human enzyme, together with: kynuramine 40 µM", "quantity": "IC50", "result": "1740 nM"}
{"SMILES": "CC#C/C(=N\\OC[C@H]1COCCN1)c1ccc2ncnc(Nc3ccc(OCc4cccc(F)c4)c(Cl)c3)c2c1", "target": "EPHA8 (Homo sapiens, UniProt P29322)", "test": "kinase activity", "conditions": "10 µM", "quantity": "inhibition", "result": "4.9%"}
{"SMILES": "Fc1cccc(-n2cnc3c(NCc4nc5cc(Cl)ccc5[nH]4)nc(N4CCNCC4)nc32)c1", "target": "Cyclin-dependent kinase 6, with cyclin D1 (CDK6, Homo sapiens, UniProt Q00534)", "test": "enzyme activity, inhibitor", "quantity": "IC50", "result": "1240 nM"}
{"SMILES": "CCN(CC)c1ccc2c(O)c(C=Nc3ccc(CC(=O)NNc4c5c(nc6ccccc46)CCCC5)cc3)c(=O)oc2c1", "target": "BCHE", "test": "enzyme activity, inhibitor", "conditions": "Triton-containing buffer", "quantity": "IC50", "result": "240 ± 40 nM"}
{"SMILES": "CCOc1ccc2cc(-c3nn(CC4CCN(C)CC4)c4ncnc(N)c34)ccc2n1", "target": "RIPK2 (Homo sapiens, UniProt O43353)", "test": "kinase activity, inhibitor", "conditions": "kinase panel profiling", "quantity": "IC50", "result": "775 nM"}
{"SMILES": "CSc1nc(Cl)cc(Sc2nnc(-c3cc(C(F)(F)F)cc(C(F)(F)F)c3)[nH]2)n1", "target": "atpA/atpD (Escherichia coli, UniProt P0ABB0+P0ABB4)", "test": "ATPase activity, inhibitor", "quantity": "IC50", "result": "> 200000 nM"}
{"SMILES": "O=C(NCc1ccc2c(c1)OCO2)C(=O)Nc1ccccc1", "target": "MAOB", "test": "enzyme activity, inhibitor, fluorescence", "conditions": "recombinant human enzyme, together with: kynuramine 20 µM", "quantity": "IC50", "result": "243 nM"}
{"SMILES": "CCOC(=O)/C=C1\\[C@@H]2CCC[C@@]1(c1cccc(O)c1)CCN2C[C@H]1C[C@@H]1CCNC(=O)c1cc2ccccc2[nH]1 (single isomer, unassigned)", "target": "Oprm1 (Mus musculus, UniProt P42866)", "test": "Gi2 activation, antagonist, BRET", "conditions": "together with: DAMGO 100 nM", "quantity": "IC50", "result": "2100 nM"}
{"SMILES": "CCN1CCN(Cc2ccc(NC(=O)c3ccc(C)c(/C=C/c4cnc5[nH]ccc5c4OC)c3)cc2C(F)(F)F)CC1", "target": "Serine/threonine-protein kinase H2 (PSKH2, Homo sapiens, UniProt Q96QS6)", "test": "kinase-CDC37 interaction, inhibitor", "test system": "human cells", "conditions": "5 µM", "scale": "relative to: vehicle", "quantity": "log2 fold change", "result": 0.215}
{"SMILES": "O=C(Cc1ccccc1Cl)N1CCN(c2ccc3nncn3n2)CC1", "target": "MAOB", "test": "enzyme activity, inhibitor, fluorescence", "conditions": "recombinant human enzyme, together with: kynuramine 20 µM", "quantity": "IC50", "result": "5550 nM"}
{"SMILES": "O=C(NOCC1CC1)c1cc(Br)c(F)c(F)c1Nc1ccc(I)cc1Cl", "target": "BCHE", "test": "enzyme activity, inhibitor", "quantity": "IC50", "result": "23400 ± 1530 nM"}
{"SMILES": "O=C(N/N=C/c1cc([N+](=O)[O-])ccc1O)c1ccc(O)cc1O", "target": "PHGDH (Homo sapiens, UniProt O43175, R135A)", "test": "enzyme activity, inhibitor", "conditions": "R134A mutant", "quantity": "IC50", "result": "141000 ± 4000 nM"}
{"SMILES": "O=C(Cn1c(-c2ccccn2)nc2ccccc21)Nc1ccc2ccccc2c1", "target": "guaB (Escherichia coli K-12, UniProt P0ADG7)", "test": "enzyme activity, inhibitor", "test system": "Escherichia coli", "quantity": "IC50", "result": "> 10000 nM"}
{"SMILES": "N#Cc1cc(S(=O)(=O)Nc2ncns2)ccc1OC(CCC12CCC(c3ccccc31)c1ccccc12)COCCN1CCCC1 (single isomer, unassigned)", "target": "SCN9A (Homo sapiens, UniProt Q15858)", "test": "inhibitor", "quantity": "IC50", "result": "0.78 nM"}
{"note": "For quick reference, copied from above:"}
{"SMILES": "Cc1ccc(S(=O)(=O)Nc2ccccc2N2CCCCC2)s1", "target": "BCHE", "test": "enzyme activity, inhibitor", "quantity": "IC50", "result": "17900 ± 2290 nM"}
{"SMILES": "CC[C@@H](C)[C@@H](NC(=O)C(O)Cc1ccc(O)c(Cl)c1)C(=O)N1C(C(=O)NCCCCN=C(N)N)CC2CCC(OS(=O)(=O)O)CC21 (stereo partly drawn)", "target": "Prothrombin (F2, Bos taurus, UniProt P00735)", "test": "enzyme activity, inhibitor", "quantity": "IC50", "result": "2.5 µg/mL"}
{"SMILES": "c1ccc(N2CCN(c3nc4cc5c(cc4s3)OCCO5)CC2)cc1", "target": "MAOB", "test": "enzyme activity, inhibitor, fluorescence", "conditions": "recombinant human enzyme, together with: kynuramine 20 µM", "quantity": "IC50", "result": "550 nM"}
